Experimental data collected from several papers.
A part holds a random share of what one study measured.

Series 1
Target: Ras GTPase-activating protein-binding protein 1, full length (G3BP1, Homo sapiens, UniProt Q13283)
Sequence of UniProt Q13283 (whole entry, looked up): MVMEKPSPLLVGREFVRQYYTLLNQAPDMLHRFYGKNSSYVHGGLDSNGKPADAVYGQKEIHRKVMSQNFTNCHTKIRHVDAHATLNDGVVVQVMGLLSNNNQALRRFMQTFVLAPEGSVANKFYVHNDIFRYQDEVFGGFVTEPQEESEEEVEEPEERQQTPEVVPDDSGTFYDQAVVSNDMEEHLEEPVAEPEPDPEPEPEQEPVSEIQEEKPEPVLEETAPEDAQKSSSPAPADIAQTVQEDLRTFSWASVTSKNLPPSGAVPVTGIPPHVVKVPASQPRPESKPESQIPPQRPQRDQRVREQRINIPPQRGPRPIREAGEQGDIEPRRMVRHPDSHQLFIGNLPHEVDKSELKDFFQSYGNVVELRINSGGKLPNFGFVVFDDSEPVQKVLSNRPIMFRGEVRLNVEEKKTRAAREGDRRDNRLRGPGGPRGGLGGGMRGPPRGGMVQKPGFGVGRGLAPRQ
Method: RNA Bind-n-Seq
Form: RNA
Sample: in vitro
Tested at: 200 nM
Notes: whole 134-nt RNA, ends assumed
Together with: 150 mM KCl
Reference: input library
Reading: higher = stronger binding
Quantity: log2 enrichment
Constant ends, left off below: GGGAGUUCUACAGUCCGACGAUC … UGGAAUUCUCGGGUGUCAAGG
AAGUCCUGUGCUACACAUCGUAUGUACCGAAUCGGGCCCCCGGCCCCCGGCCCCCGGAAAGUAUUAUGUUACGCCGUUCGGAUCUGCACU: -0.27
AAGUCCUGUGCUACACAUCGUAUGUACCGAAUCGGGGUGGGGAAAAAGGGGUGGGGAAAGUAUUAUGUUACGCCGUUCGGAUCUGCACUU: 0.628
UCAAGUCCUGUGCUACACAUCGUAUGUACCGAAUCGGGAAAAAGGGAGGGUGGGAAAGUAUUAUGUUACGCCGUUCGGAUCUGCACUUCC: 1.02
GUCCUGUGCUACACAUCGUAUGUACCGAAUCAAAUUUUUUUAAACCCAAACCCCCAAAAAAGUAUUAUGUUACGCCGUUCGGAUCUGCAC: -0.477
ACCAUGCAGGUGGGCAUCUUUGGGAAGUGGGGCAAGGGGGGGAUAGGGAGGGGGGUAACAGUUUGGGAACAGGUGGUCCCAGGUCGUUUC: 1.3
UGCGAGGUGGAUUUUGUUUAUUUUUUUAGCUCAUUUCCAGGGGUGGGAAUUUUUUUUUAAUAUGUGUCAUGAAUAAAGUUGUUUUUGAAA: -0.418
UCCUGUGCUACACAUCGUAUGUACCGAAUCGGGUUUUUGGGUUUUUGGGUUUUUUUGGGAAAGUAUUAUGUUACGCCGUUCGGAUCUGCA: -0.23
CAAGUCCUGUGCUACACAUCGUAUGUACCGAAUCGGUUUUUGGAAAAAAAGGUGGAAAGUAUUAUGUUACGCCGUUCGGAUCUGCACUUC: -0.808
CACAGACAACACGCACCCACACAGACACAGAGGAAAGGGGUUGGGAUGGGGACAGGGUGCACAGCAGGGCGGGGUAGGACCCCAGCCCCU: 1.79
UGGGAGAUGGAUUUUGUUUAUUUUUUUAGCUCAUUUCCAGGGGUGGGAAUUUUUUUUUAAUAUGUGUCAUGAAUAAAGUUGUUUUUGAAA: -0.509
CACAGACAACACGCACCCACACAGACACAGAGGGAAGGGGUUGGGAUGGGGACAGGGUGCACAGCAGGGCGGGGUAGGACCCCAGCCCAU: 1.93
AAGUCCUGUGCUACACAUCGUAUGUACCGAAUCGGAAAAAGGUUUUUUUGGUUUGGAAAGUAUUAUGUUACGCCGUUCGGAUCUGCACUU: -1.6
AAGUCCUGUGCUACACAUCGUAUGUACCGAAUCAAACCCAAACCCAAACCCCCAAAAAAGUAUUAUGUUACGCCGUUCGGAUCUGCACUU: -0.725
AAGUCCUGUGCUACACAUCGUAUGUACCGAAUCGGGUUUUUGGGAGGGAAAAAGGGAAAGUAUUAUGUUACGCCGUUCGGAUCUGCACUU: 0.00325

Series 2
Target: Sal-like protein 4, full length isoform B (SALL4, Homo sapiens, UniProt Q9UJQ4-2, residues 1-616)
Method: universal PBM
Form: double-stranded DNA, one strand shown
Sample: in vitro
Tested at: not given
Notes: 8-mer, flanks averaged, mean of replicates
Reading: higher = stronger binding
Quantity: E-score
Construct (chain): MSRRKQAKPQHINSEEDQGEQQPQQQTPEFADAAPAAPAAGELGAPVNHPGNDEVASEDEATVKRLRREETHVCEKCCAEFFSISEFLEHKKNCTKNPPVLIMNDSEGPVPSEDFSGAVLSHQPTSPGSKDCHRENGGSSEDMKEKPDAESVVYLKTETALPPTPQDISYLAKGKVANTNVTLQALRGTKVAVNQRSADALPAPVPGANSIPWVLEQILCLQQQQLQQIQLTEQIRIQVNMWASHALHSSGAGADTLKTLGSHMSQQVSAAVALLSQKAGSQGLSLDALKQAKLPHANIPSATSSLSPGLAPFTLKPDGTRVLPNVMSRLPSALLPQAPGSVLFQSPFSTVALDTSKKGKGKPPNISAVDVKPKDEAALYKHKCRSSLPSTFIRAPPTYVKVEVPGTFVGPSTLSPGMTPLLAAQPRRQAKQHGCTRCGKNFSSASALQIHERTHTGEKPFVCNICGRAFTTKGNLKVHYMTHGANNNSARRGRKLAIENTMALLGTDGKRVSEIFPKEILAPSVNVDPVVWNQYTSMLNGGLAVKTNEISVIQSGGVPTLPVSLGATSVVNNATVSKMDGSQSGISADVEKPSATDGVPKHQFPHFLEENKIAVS
CACGTCCA: -0.114
CACCCCTA: -0.176
CGACACGC: -0.133
ACGCGACA: -0.00935
CGCCCGCG: -0.37
CTTCCAGC: -0.268
ACGGTAAC: 0.0402
AATTATGC: 0.358
CTCGCCAG: -0.307
CTATCGAA: 0.221
CTGTAAAA: 0.117
AGTGTTCG: -0.0795
GGGTCACC: -0.324
AAGAATTG: 0.159
CCCTACGC: -0.2
CTTGTTGC: 0.0315
CGGGTAGA: -0.119
TAACAGCA: 0.193
TAGAGCCA: -0.152
CGTTTTAA: 0.104
AATCACCA: 0.0889
CTGTTACA: 0.0429
GAACGACA: -0.0833
ACCTGCAT: -0.0209

Series 3
Target: RNA binding protein fox-1 homolog 2, RRM domain, GST-SBP tag (RBFOX2, Homo sapiens, UniProt O43251-10, residues 100-194)
Method: RNA Bind-n-Seq
Form: RNA
Sample: in vitro
Tested at: 365 nM
Notes: natural RNA segment, single round, ends assumed
Reference: no-protein control
Reading: higher = stronger binding
Quantity: RBNS enrichment (R)
Constant ends, left off below: GGGAGUUCUACAGUCCGACGAUC … UGGAAUUCUCGGGUGCCAA
Target sequence (chain): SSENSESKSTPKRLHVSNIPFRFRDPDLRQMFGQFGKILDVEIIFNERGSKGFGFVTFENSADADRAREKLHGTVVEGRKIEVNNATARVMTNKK
AUAUUAUUAUUAAUAUUAUUAUGAAUUUUUGUAAGAAACCGAGGCGAUGCCACGCUUUGCUGCUACCGCCCUGGGCUGGACUGGAGGUGGGCAUGCCACCCUCACACACA: 0.391
CUCAGGCACCCCCUCACUGCUCCCUCUUGAAAGGGUUGCUAGCCUUAACUUCAGCUGGUGCGAAACAUCUGACUGUUGUCAGACUCCAGCCAUCUGCUCCUGCAGCGUGC: 0.294
GCUUGCAUUAUUGAUUUCCAGGACCAAGUCCUGGCUUCCUCCUGCCUUCCUGAGAUGAUGUUCUGCUCAGGGAGAAGUGGAGGGGUGAGCUGUGUGUGUCCACCGAGGCA: 6.12
UUUUGUGUCCAGCUCAGUAUCUGCAACAAGAAGUUUCCCACUUGUGGAUGUUUAGUGCAGCCACAGACUUGUAUUUUGAUCCCCAAUUUUUUUUUGAAAGAGUUCUCCUC: 0.61
UUUAAUAAAUGUUAUAAUACCAACCUACUAACUCUGGACUAUGUUUGUUUAUUAACCUUUCCGUGUUUAAUGAAAACAAACAGGGAUAAAUAAAGUCUUGAGUUCCUGGA: 0.758
ACUGGUAAUUUUCUGUAUAUUUGCAAUAUUUGGGUUAGAAAUAAACAGCCUGGACUUUGGUACCUAACCUACUAAGAUGAGUAAGCUACAGUUUUGUAUUGUUUUGUUUU: 0.901
CUUGGGCGCUUCCCACCUGCCCCGUCCCCCUAGAGACUCAGAGGACCCACCUGGGCCAAGGACUCCAAAGCCGCGGGGACACCGGGAAGUGCAGCGGGCCAGGCAGGCUG: 0.319
AAGUGUGGGCCUUGCCUGGAAAGGAUGUUAUCACUGUCCUGCUCACAGGAACAGCCCUCUUAAUCUGAGCCUGCCUAUGCUGGCAUUCUUUGCCAGUAAUGGGACACUUC: 0.254
UCCCCAGACCCCUGCUGCCAGCCACCAGCGCCAGCCUCGGGGACCUCCGGCCGUCCCUACCGACAGUGUUUGCCAAAGACAGGAGGCUGGAGGUGGACAGACCGCACGGU: 0.468
UUGCCUUUUUUUCUACAGGAGUUUUGAGUGUGAAAUGAAAAUUAAAGUUUGGUACAUAUAUUUAAAAUGCACCUCUAUUUUAUAUGAUGCUUAGGGUUGAGUGGGUGAUA: 1.04
UGCGCUUAAUCCCUGCCUUUGAAAAAUGGGCCAAUACACAACACAGACAAUAAUUUGAAGCGUCUGUAUUCAGCAAAGAUAAAUACAGCAGUCCAGUCUAUAGGUGCUCU: 0.368
GUCCUUUGCCAUGAGGAAAAAGUGGUUUUUUGCUUCAUAUGGUAAAUCUAUAUUAUUCAUAUUGAAUGUAUUAACAGAUAAUGGUGCAAAAGCAUUCUUCCCAGGGGAAG: 0.464

Series 4
Target: Prothrombin, mature alpha-thrombin (F2, Homo sapiens, UniProt P00734)
Method: aptamer microarray, sandwich
Form: DNA with 2'F-ANA
Sample: in vitro
Tested at: 200 nM
Notes: whole 15-mer aptamer, many near background
Together with: Cy3 exosite-II aptamer, 400 nM
Reading: higher = stronger binding
Quantity: mean fluorescence intensity
Oligonucleotide: GGTTGGTGTGGTTGG
2'F-ANA at 1 2 3 4 5 6 8 9 10 11 13 15: 50.7 a.u.
2'F-ANA at 1 3 6 9 10 12 15: 95.7 a.u.
2'F-ANA at 2 9 10 13 14 15: 78.5 a.u.
2'F-ANA at 2 3 7 8 10 14 15: 353 a.u.
2'F-ANA at 2 4 6 7 10 12 13 14 15: 73.5 a.u.
2'F-ANA at 3 5 7 8 9 11 14: 68.7 a.u.
2'F-ANA at 1 2 5 6 7 11 12: 85.5 a.u.
2'F-ANA at 3 7 10 11 13: 633 a.u.
2'F-ANA at 3 4 5 6 9 10 12 13 14: 99.5 a.u.
2'F-ANA at 5 6 8 9 10 11 13 15: 44.9 a.u.
2'F-ANA at 2 4 7 8 9 12 13 14 15: 118 a.u.
2'F-ANA at 1 2 3 6 8 9 10 12: 85.5 a.u.
2'F-ANA at 5 9 11 13: 60.3 a.u.
2'F-ANA at 4 5 6 10 15: 58.7 a.u.
2'F-ANA at 1 2 4 5 8 12 15: 159 a.u.
2'F-ANA at 1 2 3 4 5 7 8 12 13 15: 123 a.u.
2'F-ANA at 2 4 7 9 14: 96.8 a.u.
2'F-ANA at 2 3 6 7 8 9 10 12 13 15: 354 a.u.
2'F-ANA at 1 2 3 4 7 8 10 11 12 14: 68.7 a.u.

For quick reference, copied from above (series 2):
CTATCGAA: 0.221
CTGTAAAA: 0.117
AGTGTTCG: -0.0795
GGGTCACC: -0.324
AAGAATTG: 0.159
CCCTACGC: -0.2
